Results of several laboratories.
Numbered parts are unrelated; each lists some results of a single study. Substitutions count along the parent as printed.

Series 1
Target: Ras GTPase-activating protein-binding protein 1, full length (G3BP1, Homo sapiens, UniProt Q13283)
Sequence of UniProt Q13283 (whole entry, looked up): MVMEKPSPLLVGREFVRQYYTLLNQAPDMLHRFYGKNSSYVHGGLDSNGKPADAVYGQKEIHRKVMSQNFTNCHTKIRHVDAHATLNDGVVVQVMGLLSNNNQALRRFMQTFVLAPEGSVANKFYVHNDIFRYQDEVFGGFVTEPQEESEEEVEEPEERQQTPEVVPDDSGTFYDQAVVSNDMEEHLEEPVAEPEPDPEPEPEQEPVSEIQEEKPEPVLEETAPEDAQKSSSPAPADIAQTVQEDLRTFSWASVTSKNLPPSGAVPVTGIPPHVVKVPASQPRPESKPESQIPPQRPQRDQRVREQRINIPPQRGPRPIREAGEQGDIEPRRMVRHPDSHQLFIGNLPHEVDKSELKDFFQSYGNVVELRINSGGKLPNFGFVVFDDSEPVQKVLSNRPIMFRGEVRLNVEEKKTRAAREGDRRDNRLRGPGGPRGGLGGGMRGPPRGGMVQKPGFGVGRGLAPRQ
Method: RNA Bind-n-Seq
Molecule type: RNA
Matrix: in vitro
Tested at: 200 nM
Setting: whole 134-nt RNA, ends assumed
With: 150 mM LiCl
Reference: input library
Reading: higher = stronger binding
Library: 7-deaza-guanosine replaces G
With `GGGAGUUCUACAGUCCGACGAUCACCAUGCAGGUGGGCAUCUUUGGGAAGUGGGUCAAGGGGGGGAUAGGGAGGGGGGUAACACUUUGGGAACAGGUGGUCCCAGGUCGUUUCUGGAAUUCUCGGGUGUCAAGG` the log2 enrichment was 0.287.
`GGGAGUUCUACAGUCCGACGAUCCAAGUCCUGUGCUACACAUCGUAUGUACCGAAUCGGGUGGGAGGGUUUUUUUGGGAAAGUAUUAUGUUACGCCGUUCGGAUCUGCACUUCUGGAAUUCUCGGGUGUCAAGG` gave a log2 enrichment of 0.0319.
`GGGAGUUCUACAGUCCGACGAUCAGUCCUGUGCUACACAUCGUAUGUACCGAAUCGGGUUUUUUUGGGAGGGUUUUUGGGAAAGUAUUAUGUUACGCCGUUCGGAUCUGCACUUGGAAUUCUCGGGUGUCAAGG` gave a log2 enrichment of -0.585.
With `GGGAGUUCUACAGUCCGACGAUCACCAUGCAGGUGGGCAUCUUUGGGAAGUGGGGCAAGGGGGGGAUAGGGAGGGGGGAAACACUUUGGGAACAGGUGGUCCCAGGUCGUUUCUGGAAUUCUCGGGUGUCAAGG` the log2 enrichment was 0.342.
With `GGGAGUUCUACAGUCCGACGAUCCCUCAAGUCCUGUGCUACACAUCGUAUGUACCGAAUCGGGCGGGCGGCGGGGAAAGUAUUAUGUUACGCCGUUCGGAUCUGCACUUCCAGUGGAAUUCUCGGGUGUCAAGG` the log2 enrichment was 0.636.
With `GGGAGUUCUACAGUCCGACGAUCUCAAGUCCUGUGCUACACAUCGUAUGUACCGAAUCGGGUUGGGGUUGGGUUGGGAAAGUAUUAUGUUACGCCGUUCGGAUCUGCACUUCCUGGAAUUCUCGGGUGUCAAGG` the log2 enrichment was -0.0388.

Series 2
Target: ABI1, truncated, D143A, DHFR fusion (Arabidopsis thaliana)
Method: DHFR PCA, deep sequencing
Matrix: yeast
Setting: methotrexate growth selection, single substitutions
With: (+)-ABA 1.4 µM
Reference: wild-type fitted maximum
Reading: higher = stronger binding
Starting sequence: PYL1, truncated, DHFR fusion (Arabidopsis thaliana); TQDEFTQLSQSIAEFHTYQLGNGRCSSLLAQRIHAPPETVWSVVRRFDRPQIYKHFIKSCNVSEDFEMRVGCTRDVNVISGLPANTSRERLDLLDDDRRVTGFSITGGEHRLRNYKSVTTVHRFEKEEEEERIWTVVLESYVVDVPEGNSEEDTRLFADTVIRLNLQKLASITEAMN; partner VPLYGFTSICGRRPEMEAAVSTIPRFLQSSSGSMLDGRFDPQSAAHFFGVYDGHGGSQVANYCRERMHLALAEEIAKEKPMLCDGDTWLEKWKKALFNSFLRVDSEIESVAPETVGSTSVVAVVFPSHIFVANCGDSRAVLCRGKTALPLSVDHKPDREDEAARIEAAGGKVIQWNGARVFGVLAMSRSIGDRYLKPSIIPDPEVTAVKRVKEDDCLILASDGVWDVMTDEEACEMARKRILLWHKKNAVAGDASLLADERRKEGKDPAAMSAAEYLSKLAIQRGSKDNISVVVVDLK
`E139R`: “relative binding score” 7.5%.
`C60H`: “relative binding score” -5.85%.
`L91C`: “relative binding score” 8%.
`F47I` — result for “relative binding score”: 1.85%.
`H122R` — result for “relative binding score”: 0.326%.

Series 3
Target: Interferon regulatory factor 7, full length, phosphomimetic (IRF7, Homo sapiens, UniProt Q92985, residues 1-503, S471D/S472D/S475D/S476D/S477D/S483D/S484D/S487D)
Method: protein-binding microarray
Molecule type: double-stranded DNA, one strand shown
Matrix: in vitro
Tested at: 2200 nM top
Setting: 60-bp whole probe
With: salmon DNA 0.4 mg/ml
Reference: random background probes
Reading: higher = stronger binding
Shared flanks, not repeated: GCCTAGCAC … GTCTTGATTCGCTTGACGCTGCTG
Construct (chain): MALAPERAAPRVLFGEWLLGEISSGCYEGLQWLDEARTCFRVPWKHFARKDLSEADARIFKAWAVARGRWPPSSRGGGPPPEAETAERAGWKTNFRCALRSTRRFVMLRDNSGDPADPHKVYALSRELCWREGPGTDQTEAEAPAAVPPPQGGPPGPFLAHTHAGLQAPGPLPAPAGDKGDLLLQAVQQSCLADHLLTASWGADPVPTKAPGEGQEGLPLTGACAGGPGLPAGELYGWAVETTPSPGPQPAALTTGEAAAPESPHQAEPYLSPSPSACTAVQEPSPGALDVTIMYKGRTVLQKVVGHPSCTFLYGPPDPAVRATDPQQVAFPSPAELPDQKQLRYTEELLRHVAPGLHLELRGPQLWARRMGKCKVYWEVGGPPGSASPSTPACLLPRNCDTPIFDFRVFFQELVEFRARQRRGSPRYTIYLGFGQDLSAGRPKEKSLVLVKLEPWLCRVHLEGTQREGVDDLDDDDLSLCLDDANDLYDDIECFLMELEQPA
For `TCATTTTTTTTCTTTAAACTGTGCTAG`, “fitted relative affinity” read 1.62 z-score.
`TTAGGTCTCCTTTTCCTTTCGTGCTAG` — result for “fitted relative affinity”: 3.05 z-score.
`TTAGGTCTCCTACTGATTTAGTGCTAG`: “fitted relative affinity” 0.359 z-score.
For `GACGGTTTCTTTTTCCTGACGTGCTAG`, “fitted relative affinity” read 4.14 z-score.
Under “fitted relative affinity”, `GACGATTCCGGTTTCGGGACGTGCTAG` is recorded as 4.81 z-score.
For `GACGATTTCGGATATCGAGACGTGCTA`, “fitted relative affinity” read 1.41 z-score.
For `TTATGACTGGGTCTCGGTTAGTGCTAG`, “fitted relative affinity” read 0.373 z-score.
Under “fitted relative affinity”, `GACGATTCAAGTTTCGAGACGTGCTAG` is recorded as 2.85 z-score.
For `GACGGTAACGACTATCGGGACGTGCTA`, “fitted relative affinity” read -0.694 z-score.
`GACGGTATAGGTATCGGGACGTGCTAG`: “fitted relative affinity” -0.338 z-score.

Single results of other studies
For `PhoQ, residues 284 288 289 292 302 303 AGHLVA`, the fold induction was 3.71 (PhoP, residues 12 14 15 18 19 LWHVM (Escherichia coli, UniProt P23836); Sort-seq, item: YFP reporter; E. coli; PhoQ-PhoP variant library, with: 10 µM Mg2+; reference: high Mg2+ state, higher = stronger signaling).

For quick reference, copied from above (series 3):
Under “fitted relative affinity”, `GACGATTCAAGTTTCGAGACGTGCTAG` is recorded as 2.85 z-score.
For `GACGGTAACGACTATCGGGACGTGCTA`, “fitted relative affinity” read -0.694 z-score.
`GACGGTATAGGTATCGGGACGTGCTAG`: “fitted relative affinity” -0.338 z-score.
